{"data": "Experimental data pooled from the literature", "note": "Protocols differ between the studies behind these lines. Several values in a cell are separate wells, animals, samples, runs or records. Numbers after ± are the reported error."}
{"Compound": "C#Cc1c(F)ccc2cc(O)cc(-c3ncc4c(N5CC6CCC(C5)N6C(=O)OC(C)OC(=O)CCCCCCC)nc(OC[C@@]56CCCN5C[C@H](F)C6)nc4c3F)c12 (stereo partly shown)", "test": "measured: prodrug", "test system": "mouse whole blood", "conditions": "1 µM", "quantity": "t1/2", "value": "4.85 min"}
{"Compound": "N=C(N)NCCC[C@@H](NC(=O)[C@H](N)Cc1c[nH]c2ccccc12)C(=O)N[C@H](CCCCN)C(=O)N[C@H](Cc1c[nH]c2ccccc12)C(=O)N[C@H](CCCNC(=N)N)C(=O)N[C@H](CCCCN)C(=O)N[C@H](Cc1c[nH]c2ccccc12)C(=O)N[C@H](CCCNC(=N)N)C(=O)N[C@H](CCCCN)C(=O)N[C@H](Cc1c[nH]c2ccccc12)C(=O)N[C@H](CCCNC(=N)N)C(=O)N[C@H](CCCCN)C(N)=O", "test system": "mouse", "conditions": "intraperitoneal, 40 mg/kg single dose, day 5", "quantity": "survival", "value": "75%"}
{"Compound": "CC[C@H](C)[C@H](NC(=O)[C@H](CCCCN)NC(=O)CNC(=O)[C@H](CC(C)C)NC(=O)[C@H](Cc1ccccc1)NC(=O)[C@H](CCCCN)NC(=O)[C@H](CO)NC(=O)[C@H](Cc1ccccc1)NC(=O)[C@H](Cc1c[nH]c2ccccc12)NC(=O)[C@H](CCC(N)=O)NC(=O)[C@@H](NC(=O)[C@H](Cc1ccccc1)NC(=O)CCCCCNC(=O)CN1CCN(CC(=O)O)CCN(CC(=O)O)CCN(CC(=O)O)CC1)C(C)C)C(=O)N[C@@H](CCC(=O)O)C(=O)N1CCC[C@H]1C(=O)N[C@@H](CC(=O)O)C(=O)N[C@H](C(=O)N[C@@H](CO)C(=O)N[C@@H](CCC(N)=O)C(=O)N[C@H](C(=O)N[C@@H](CCC(N)=O)C(=O)N[C@@H](CC(=O)O)C(=O)N1CCC[C@H]1C(=O)N[C@@H](CC(N)=O)C(=O)N[C@@H](CC(=O)O)C(=O)N[C@@H](CCC(N)=O)C(=O)N[C@@H](Cc1ccc(O)cc1)C(=O)N[C@@H](CCC(=O)O)C(=O)N1CCC[C@H]1C(=O)N[C@@H](Cc1ccccc1)C(=O)O)C(C)C)C(C)C [copper-64 labelled]", "test system": "C57BL/6 mice, male, tumour-free, kidneys", "conditions": "1 h", "quantity": "tissue uptake", "value": "90.3 ± 7.2 %ID/g"}
{"Compound": "CCCCC[C@@H]1NC(=O)[C@@H](C)N(C)C(=O)[C@H](CCCCC)OC(=O)[C@@H](C)N(C)C(=O)[C@H](CCCCC)NC(=O)[C@@H](C)N(C)C(=O)[C@H](CCCCC)OC(=O)[C@@H](C)N(C)C1=O", "test": "PAMPA", "conditions": "500 µM, pH 7.4, UV/ELSD/MS detection", "quantity": "log Papp", "value": -5.24}
{"Compound": "CC(C)[C@@H]1NC(=O)CNC(=O)[C@H](CC(N)=O)NC(=O)[C@H](CCCNC(=N)N)NC(=O)[C@H](Cc2ccc(O)cc2)NC(=O)[C@H](C(C)C)NC(=O)[C@@H](NC(=O)[C@@H](NC(=O)[C@H](CC(N)=O)NC(=O)[C@H](Cc2c[nH]c3ccccc23)NC(=O)[C@H](C)NC(=O)[C@H](Cc2ccccc2)NC(=O)CNC(=O)[C@H](CCCCN)NC(=O)[C@H](Cc2ccccc2)NC(=O)[C@H](Cc2ccccc2)NC(=O)[C@H](CCCCN)NC(=O)OCC2c3ccccc3-c3ccccc32)C(C)C)CSSC[C@@H](C(=O)N[C@@H](Cc2c[nH]cn2)C(=O)N[C@@H](CCCNC(=N)N)C(=O)N[C@@H](CCCNC(=N)N)C(=O)N[C@@H](C)C(=O)N[C@@H](CC(N)=O)C(N)=O)NC(=O)[C@H](C(C)C)NC(=O)[C@H](CCCNC(=N)N)NC1=O", "test system": "ICR mice, serum", "conditions": "intraductal mammary, 5 mg/kg, day 5", "quantity": "blood urea nitrogen", "value": "11.1 ± 0.49 mmol/L"}
{"Compound": "CC(C)C[C@H](NC(=O)[C@H](C)NC(=O)[C@H](CCCCN)NC(=O)CCNC(=S)Nc1ccc2c(c1)C(=O)OC21c2ccc(O)cc2Oc2cc(O)ccc21)C(=O)N[C@@H](CCC(=O)O)C(=O)N[C@H](C(=O)N[C@@H](CC(C)C)C(=O)N[C@@H](CCCNC(=N)N)C(=O)N[C@@H](CCCNC(=N)N)C(=O)N[C@H](C(=O)N[C@@]1(C)CCCC=CCCC[C@@](C)(C(=O)N[C@@H](CCCNC(=N)N)C(=O)N[C@@H](CC(N)=O)C(=O)N[C@@H](Cc2c[nH]cn2)C(=O)N[C@@H](CCC(=O)O)C(=O)N[C@H](C(=O)N[C@@H](C)C(=O)N[C@@H](Cc2ccccc2)C(N)=O)[C@@H](C)O)NC(=O)[C@H](C(C)C)NC(=O)CNC(=O)[C@H](CC(=O)O)NC1=O)C(C)C)[C@@H](C)O", "test": "circular dichroism", "test system": "potassium phosphate buffer", "conditions": "20 µM, pH 7.5", "quantity": "α-helicity", "value": "81%"}
{"Compound": "CC[C@H](C)[C@H](NC(=O)[C@H](CO)NC(=O)[C@H](Cc1ccc(O)cc1)NC(=O)[C@H](Cc1ccc(O)cc1)NC(=O)[C@H](CC(N)=O)NC(=O)CNC(=O)[C@H](CO)NC(=O)[C@H](Cc1ccc(O)cc1)NC(=O)[C@H](CO)NC(=O)[C@H](CO)NC(=O)[C@H](CC(N)=O)NC(=O)COCCOCCNC(=O)CN1CCN(CC(=O)O)CCN(CC(=O)O)CCN(CC(=O)O)CC1)C(=O)N[C@@H](CC(C)C)C(N)=O [copper-64 labelled]", "test": "dynamic PET", "test system": "tamoxifen-induced PDAC mouse model, metastases", "conditions": "9.5 min, CLDN4-expressing tumours", "quantity": "maximum metastasis uptake", "value": "24.4 %IA/cc"}
{"Compound": "C[C@H](NCc1ccc(-c2ccc(C(F)(F)F)cc2)cc1)C(N)=O", "test system": "rat, plasma", "conditions": "oral, 10 mg/kg, 2 h", "quantity": "concentration", "value": "730 ng/mL"}
{"Compound": "OCC1OC(n2cnc3c(NCc4ccc(Br)s4)ncnc32)C(O)C1O (stereo not shown)", "test system": "Sprague-Dawley rats, both sexes", "conditions": "oral, repeated dosing", "quantity": "maximum tolerated dose", "value": "≥ 150 mg/kg/day"}
{"Compound": "COc1ccc([C@@H]2CC(=O)c3c(O)cc(O[C@@H]4O[C@H](CO)[C@@H](O)[C@H](O)[C@H]4O[C@@H]4O[C@@H](C)[C@H](O)[C@@H](O)[C@H]4O)cc3O2)cc1O", "test system": "male Sprague-Dawley rats, lean, urine", "conditions": "oral, 100 mg/kg, 48 h", "scale": "baseline: oral dose", "quantity": "urinary recovery", "value": "0.001 ± 0.0004%"}
{"Compound": "CN1Cc2cc(Cl)ccc2-n2c(nnc2C2CCN(c3cccc([18F])n3)CC2)C1", "test system": "C57BL/6 mouse male, pancreas", "conditions": "intravenous, dose not given, 30 min, added: blocking agent 10 mg/kg", "quantity": "tissue uptake", "value": "7.85 ± 4.39 %ID/g"}
{"Compound": "CSCC[C@H](N)C(=O)N[C@@H](C)C(=O)N[C@@H](Cc1c[nH]c2ccccc12)C(=O)N[C@@H](Cc1c[nH]cn1)C(=O)N[C@@H](CC(=O)O)C(=O)N[C@@H](CC(=O)O)C(=O)N[C@@H](CCC(=O)O)C(=O)N[C@@H](CCC(=O)O)C(=O)N[C@@H](Cc1ccccc1)C(=O)N[C@@H](C)C(=O)N[C@@H](CCCNC(=N)N)C(=O)N[C@@H](CCCNC(=N)N)C(=O)N[C@@H](CCCNC(=N)N)C(=O)N[C@@H](CCCNC(=N)N)C(=O)NCCCCCC(=O)NCCCCC(NC(=O)CCCCCNC(=O)[C@H](CCCNC(=N)N)NC(=O)[C@H](CCCNC(=N)N)NC(=O)[C@H](CCCNC(=N)N)NC(=O)[C@H](CCCNC(=N)N)NC(=O)[C@H](C)NC(=O)[C@H](Cc1ccccc1)NC(=O)[C@H](CCC(=O)O)NC(=O)[C@H](CCC(=O)O)NC(=O)[C@H](CC(=O)O)NC(=O)[C@H](CC(=O)O)NC(=O)[C@H](Cc1c[nH]cn1)NC(=O)[C@H](Cc1c[nH]c2ccccc12)NC(=O)[C@H](C)NC(=O)[C@@H](N)CCSC)C(=O)NCCCCC(NC(=O)C(CCCCNC(=O)CCCCCNC(=O)[C@H](CCCNC(=N)N)NC(=O)[C@H](CCCNC(=N)N)NC(=O)[C@H](CCCNC(=N)N)NC(=O)[C@H](CCCNC(=N)N)NC(=O)[C@H](C)NC(=O)[C@H](Cc1ccccc1)NC(=O)[C@H](CCC(=O)O)NC(=O)[C@H](CCC(=O)O)NC(=O)[C@H](CC(=O)O)NC(=O)[C@H](CC(=O)O)NC(=O)[C@H](Cc1c[nH]cn1)NC(=O)[C@H](Cc1c[nH]c2ccccc12)NC(=O)[C@H](C)NC(=O)[C@@H](N)CCSC)NC(=O)CCCCCNC(=O)[C@H](CCCNC(=N)N)NC(=O)[C@H](CCCNC(=N)N)NC(=O)[C@H](CCCNC(=N)N)NC(=O)[C@H](CCCNC(=N)N)NC(=O)[C@H](C)NC(=O)[C@H](Cc1ccccc1)NC(=O)[C@H](CCC(=O)O)NC(=O)[C@H](CCC(=O)O)NC(=O)[C@H](CC(=O)O)NC(=O)[C@H](CC(=O)O)NC(=O)[C@H](Cc1c[nH]cn1)NC(=O)[C@H](Cc1c[nH]c2ccccc12)NC(=O)[C@H](C)NC(=O)[C@@H](N)CCSC)C(N)=O (stereo partly shown)", "test system": "C57BL/6 mouse female, femur", "conditions": "dose not given, 6 h", "scale": "baseline: total", "quantity": "tissue distribution", "value": "1.29% and 1.62% and 1.38%"}
{"Compound": "CC(CCC(=O)NCC(=O)O)C1CCC2C3CCC4CC(OC5OC(C(=O)O)C(O)C(O)C5O)CCC4(C)C3CC(O)C12C (stereo not shown)", "test system": "human women", "conditions": "dose not given, SLCO1B1 *5/*14", "quantity": "plasma concentration", "value": "71.4 ng/mL"}
{"Compound": "Cc1nc2cccc(OCC(C)(C)C(=O)NC(C)C)c2c(N)c1C(=O)[O-].[Na+]", "target or system": "Escherichia coli", "test": "reverse mutation, plate incorporation", "test system": "WP2 uvrA", "conditions": "0.13 mg/plate, without S9", "quantity": "revertant colonies", "value": "31 ± 1 colonies/plate"}
{"Compound": "NC1CCN(C(=O)Oc2ccc(C3CCCC4(C3)OOC3(O4)C4CC5CC(C4)CC3C5)cc2)CC1 (racemic)", "test system": "citrate buffer", "conditions": "8 h, anaerobic, added: 50 mM ferrous iron", "quantity": "parent remaining", "value": "79%"}
{"Compound": "CC(=O)NCCCC[C@@H]1NC(=O)[C@H](Cc2c[nH]c3c(C)cccc23)NC(=O)[C@H]([C@@H](C)O)NC(=O)[C@H](CC(N)=O)NC(=O)[C@@H](NC(C)=O)C(C)(C)SSC(C)(C)[C@@H](C(=O)N[C@@H](Cc2ccc(OCCN)cc2)C(=O)N[C@@H](Cc2ccc3ccccc3c2)C(=O)NC2(C(=O)N[C@@H](CCC(=O)O)C(=O)N[C@@H](CC(N)=O)C(=O)N[C@@H](Cc3cccnc3)C(=O)N(C)CC(N)=O)CCOCC2)NC1=O", "test system": "human, plasma", "conditions": "oral, 25 mg, single dose, healthy volunteers", "quantity": "CL/F", "value": "4530 L/h"}
{"Compound": "O=C1NC2(CC2)COc2ncc(F)cc2[C@H]2COCCN2c2ccn3ncc1c3n2", "test system": "Sprague-Dawley rat, female", "conditions": "oral, 10 mg/kg/day, end of treatment, 4-week repeated-dose toxicity", "quantity": "body weight", "value": "337 ± 36.8 g"}
{"Compound": "CC[C@H](C)[C@H](NC(=O)[C@H](C)NC(=O)[C@H](CCCCN)NC(=O)[C@H](CCCCN)NC(=O)[C@@H](N)CCCNC(=N)N)C(=O)N[C@@H](CCCCN)C(=O)N[C@@H](CC(C)C)C(=O)N[C@H](C(=O)N[C@@H](CCCCN)C(=O)N[C@@H](CCCCN)C(=O)N[C@@H](CC(C)C)C(=O)N[C@H](C(=O)N[C@@H](CCCCN)C(=O)N[C@@H](CCCCN)C(=O)N[C@@H](CC(C)C)C(=O)N[C@@H](CCCCN)C(=O)N[C@@H](CCCCN)C(=O)N[C@@H](C)C(=O)N[C@@H](CC(C)C)C(=O)N[C@@H](CCCCN)C(=O)O)C(C)C)C(C)C", "test system": "human red blood cells", "conditions": "32 mg/L, 1 h, mean of replicates", "quantity": "hemolysis", "value": "3.94%"}
{"Compound": "C[C@H](O)[C@@H](NC(=O)[C@H]1CCCN1C(=O)[C@@H](CCCCN)NC(=O)[C@@H](CO)NC(=O)[C@@H](Cc1ccc(O)cc1)NC(=O)[C@@H](CC(N)=O)NC(=O)CCOCCOCCOCCNC(=O)CN1CCN(CC(=O)O)CCN(CC(=O)O)CCN(CC(=O)O)CC1)C(=O)N[C@H](CC(=O)O)C(=O)N[C@H](CCCNC(=N)N)C(=O)N[C@H](CCC(N)=O)C(=O)N[C@H](Cc1ccc(O)cc1)C(=O)N[C@H](Cc1c[nH]cn1)C(=O)N[C@H](Cc1ccccc1)C(N)=O [gallium-68 labelled]", "test system": "BALB/c nude mice U-87 MG tumour, tumor", "conditions": "intravenous, 1.85 MBq, 1 h, radiolabelled", "quantity": "tissue uptake", "value": "2.99 ± 0.03 %ID/g"}
{"note": "A few entries again:"}
{"Compound": "CC(=O)NCCCC[C@@H]1NC(=O)[C@H](Cc2c[nH]c3c(C)cccc23)NC(=O)[C@H]([C@@H](C)O)NC(=O)[C@H](CC(N)=O)NC(=O)[C@@H](NC(C)=O)C(C)(C)SSC(C)(C)[C@@H](C(=O)N[C@@H](Cc2ccc(OCCN)cc2)C(=O)N[C@@H](Cc2ccc3ccccc3c2)C(=O)NC2(C(=O)N[C@@H](CCC(=O)O)C(=O)N[C@@H](CC(N)=O)C(=O)N[C@@H](Cc3cccnc3)C(=O)N(C)CC(N)=O)CCOCC2)NC1=O", "test system": "human, plasma", "conditions": "oral, 25 mg, single dose, healthy volunteers", "quantity": "CL/F", "value": "4530 L/h"}
{"Compound": "CC(CCC(=O)NCC(=O)O)C1CCC2C3CCC4CC(OC5OC(C(=O)O)C(O)C(O)C5O)CCC4(C)C3CC(O)C12C (stereo not shown)", "test system": "human women", "conditions": "dose not given, SLCO1B1 *5/*14", "quantity": "plasma concentration", "value": "71.4 ng/mL"}
